Published values pooled from the literature.
Each numbered part is a random draw from the data of one study; scales do not carry over between parts.

Block 1
Target: Histone acetyltransferase KAT6A, winged helix 1, GST fusion (KAT6A, Homo sapiens, UniProt Q92794, residues 1-85)
Technique: protein binding microarray
Molecule type: double-stranded DNA, one strand shown
Matrix: in vitro
Tested at: not given
Setting: 8-mer, flanks averaged, mean of 2 arrays, mostly near background
Relative to: not given
Reading: higher = stronger binding
Target sequence (chain): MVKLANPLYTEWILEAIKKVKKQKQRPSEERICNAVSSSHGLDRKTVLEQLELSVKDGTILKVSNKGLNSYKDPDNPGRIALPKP
Strand | E-score
AACGTGCT | -0.202
GACCGGCA | 0.279
AAGTTATG | -0.117
CGTAAAAA | -0.0337
AGGTGGGA | -0.159
ACCAATAT | -0.217
GTAAATAC | 0.0791
AACAGCAC | -0.0461
CAAGGGAC | -0.148
GTTGAAAA | -0.207
CGCTATAG | 0.216
CAACAACA | -0.195
ACGAGGCC | 0.00272
CAACACGA | -0.212
GAGGTCGC | 0.125
CGGGTACC | 0.305
ACATCACC | 0.0569
AGAGGAAG | -0.212
CCGGCGAG | 0.271
ACCGGTAG | 0.206
ATACGCAG | 0.00609
CTGCTACA | -0.116
GACAGCGC | 0.385

Block 2
Target: RNA binding protein fox-1 homolog 2, RRM domain, GST-SBP tag (RBFOX2, Homo sapiens, UniProt O43251-10, residues 100-194)
Technique: RNA Bind-n-Seq
Molecule type: RNA
Matrix: in vitro
Tested at: 365 nM
Setting: natural RNA segment, single round, ends assumed
Relative to: no-protein control
Reading: higher = stronger binding
Shared flanks, not repeated: GGGAGUUCUACAGUCCGACGAUC … UGGAAUUCUCGGGUGCCAA
Construct (chain): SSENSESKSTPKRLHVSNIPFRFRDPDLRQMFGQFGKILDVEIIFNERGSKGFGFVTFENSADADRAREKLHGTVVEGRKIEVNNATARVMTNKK
Strand | RBNS enrichment (R)
CUGUAUCCACAAAAUCUCCACUGCUGUCGAGUGUCCUUUAGCUGUGGACCAAAGGCAACCCCUGCAGUGUCUGUGAAAUGAUUUGAAGACCGUUCAGGCCACGCAAUAUG | 0.411
CCCCGCCCUGAAGAGCUUCAGAAAUAGUGGGAGUUUCCCUAAAGCCUUUCAUAGCCUUAAUUCAUGUCAUGUAUAAAUUAACAUAAAUCAUGUCUAUUUACAUAGUGAAG | 0.307
GAGUGGGGGAGACUUCACCCUGGAGCCAAAGGCUACACCGUACGUGUAGUCCCAGAGCCCGUCACAGCCCUUGUGGUUCAAGCUUCUUCUGCCUCUUUAGGAAGUGAGGG | 0.263
GGUUUCAGAAUAAACUCAGAGAAAACUUCAGGCUAAGAGACAGUGCUGCGUAGCUGUGUUGUUUCCUGUUAUGAGCAUUGGAAAUUGGGUUCUCCUUCUGUGAGCAUGGA | 2.37
UUUAAAAACAGAAUUGUGUUAUGUGAUCAGUUUUGGGGGUUAACUUUGCUUAAUUCCUCAGGCUUUGCGAUUUAAGGAGGAGCUGCCUUAAAAAAAAAUAAAGGCCUUAU | 0.697
UGUAGGUGUUUUCAUCUGUCAUGAAGGGACAGAUGAGAUCCUACUACUUGCGAAGUUUCUAUGCAUACCUUUAAGUUCAGGCCCUAGGUGAAGGACAGUCCCUCAGCCUU | 0.493
GUUCUGCUCACCGAUAUUUGCCCGGCCCCUGGAAGAGGAAACCUUUCGAAAGCUAAUAUCCCAGAAGAGCGACAGACAGAGGAGGUGACUACAUGUAAGACAUAUGUUAC | 0.379
AGUGCUGUUACUUGGCCACUAAGAUGUGUAAAAUGGACUGAAAUGCUCCAUCAUGAAGACUUGCUUCCCCACCAAAGAUGUCCUGGGAUUCUGCUGGAUCUCAAAGAUGU | 0.628
UGAGGGACCAUCUACCCCCCACCUAUCCUCGAGCACCAGGCUUGUGAGAUGAGACAGAGGGUGGAGGAAGCCAUGAGGGAUGGUCCCCACGGAUCCUGCCGAGAGCCACG | 4.81
UCCUGUCUUAGCCGCAGUCUCCAGAACCCAUGAUGAACUGUGAUCUGCCGUGGUCCUGCCGUGGUCCUGCCGUGGAGCCUGUCCCUACACAUGACCUUGGAGCCUCUUGG | 0.366
CUUGCUGGAAAUGUGCCUACAAUGGCCUUGUAACAGCCAUUGUUCCCAACAGCAUCACUUAGGGGUGUGAAAAGAAGUAUUUUUGAACCUGUUGUCUGGUUUUGAAAAAC | 0.255
UCAGACAACUAGUUGUCUGACAGAAAUGUUAGGCUUCAUGUAUGUUACCCCAGUACUGUUAGAAACAUUUGUACUAGGUUAUAAGAUCUUUCUGUGACAGGUAACAAAUU | 0.256

Block 3
Target: Sal-like protein 4, full length isoform A (SALL4, Homo sapiens, UniProt Q9UJQ4, residues 1-1053)
UniProt Q9UJQ4, sequence (whole entry, looked up): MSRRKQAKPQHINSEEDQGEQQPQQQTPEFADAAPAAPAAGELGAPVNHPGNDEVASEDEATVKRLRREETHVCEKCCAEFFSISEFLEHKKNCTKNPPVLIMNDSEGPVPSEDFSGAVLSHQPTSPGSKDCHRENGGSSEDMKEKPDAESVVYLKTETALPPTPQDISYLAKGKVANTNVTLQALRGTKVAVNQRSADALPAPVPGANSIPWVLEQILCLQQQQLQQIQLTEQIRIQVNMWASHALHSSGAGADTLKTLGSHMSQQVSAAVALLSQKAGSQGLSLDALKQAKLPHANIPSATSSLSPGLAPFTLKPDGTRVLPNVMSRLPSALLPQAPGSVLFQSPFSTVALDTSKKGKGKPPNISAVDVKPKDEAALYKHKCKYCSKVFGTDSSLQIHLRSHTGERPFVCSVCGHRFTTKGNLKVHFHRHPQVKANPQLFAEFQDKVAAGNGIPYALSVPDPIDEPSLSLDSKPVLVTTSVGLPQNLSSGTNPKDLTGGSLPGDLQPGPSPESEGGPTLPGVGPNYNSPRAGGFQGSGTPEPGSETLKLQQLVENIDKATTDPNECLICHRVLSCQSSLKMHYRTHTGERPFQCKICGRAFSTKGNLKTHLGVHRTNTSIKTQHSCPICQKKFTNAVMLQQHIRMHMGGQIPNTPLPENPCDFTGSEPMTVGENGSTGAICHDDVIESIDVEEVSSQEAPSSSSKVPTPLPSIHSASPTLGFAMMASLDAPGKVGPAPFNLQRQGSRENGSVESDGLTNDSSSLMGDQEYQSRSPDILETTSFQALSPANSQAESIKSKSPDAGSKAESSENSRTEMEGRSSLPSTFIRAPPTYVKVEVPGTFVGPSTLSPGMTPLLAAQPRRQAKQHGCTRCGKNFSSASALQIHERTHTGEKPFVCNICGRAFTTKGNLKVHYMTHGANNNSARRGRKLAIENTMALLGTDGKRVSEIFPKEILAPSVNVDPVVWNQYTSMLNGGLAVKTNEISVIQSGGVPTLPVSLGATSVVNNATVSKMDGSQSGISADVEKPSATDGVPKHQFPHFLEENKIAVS
Technique: universal PBM
Molecule type: double-stranded DNA, one strand shown
Matrix: in vitro
Tested at: 600 nM
Setting: 8-mer, flanks averaged, mean of replicates
Reading: higher = stronger binding
Strand | E-score
TCGTTGAA | 0.129
ACCCAGGC | -0.277
CGGCCACC | -0.274
TAGCCCCA | -0.179
CGGGAAGA | -0.0635
CGACTAAG | -0.118
TATAGGCA | 0.198
ACATCTCG | 0.0806
ACGCACAA | 0.101
GGCTATAA | 0.244
CTCCCCGA | -0.303
GAAACCTC | -0.249
CGTTTGAC | -0.0405
CGATACAC | 0.079
AGTACAAT | 0.201
CATCGAAA | 0.106
AAACGTTC | 0.103
CAACCAAA | 0.0424
AAAAGTTG | 0.0855
AGGAGGGA | -0.194

Block 4
Target: Ras GTPase-activating protein-binding protein 1, full length (G3BP1, Homo sapiens, UniProt Q13283)
UniProt Q13283, sequence (whole entry, looked up): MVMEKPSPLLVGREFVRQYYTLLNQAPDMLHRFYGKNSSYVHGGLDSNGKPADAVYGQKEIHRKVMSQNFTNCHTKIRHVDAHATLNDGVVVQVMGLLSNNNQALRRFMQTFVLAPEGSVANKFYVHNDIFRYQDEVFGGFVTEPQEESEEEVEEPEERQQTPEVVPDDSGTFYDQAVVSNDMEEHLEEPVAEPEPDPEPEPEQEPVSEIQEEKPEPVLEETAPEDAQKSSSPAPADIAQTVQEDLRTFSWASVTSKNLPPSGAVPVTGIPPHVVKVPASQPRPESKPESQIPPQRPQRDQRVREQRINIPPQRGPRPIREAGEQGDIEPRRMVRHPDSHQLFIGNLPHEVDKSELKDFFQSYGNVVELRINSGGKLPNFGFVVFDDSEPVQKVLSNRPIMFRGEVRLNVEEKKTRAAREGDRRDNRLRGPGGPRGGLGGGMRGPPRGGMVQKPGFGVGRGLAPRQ
Technique: RNA Bind-n-Seq
Molecule type: RNA
Matrix: in vitro
Tested at: 200 nM
Setting: whole 134-nt RNA, ends assumed
Added: 150 mM KCl
Relative to: input library
Reading: higher = stronger binding
Shared flanks, not repeated: GGGAGUUCUACAGUCCGACGAUC … UGGAAUUCUCGGGUGUCAAGG
Strand | log2 enrichment
AAGUCCUGUGCUACACAUCGUAUGUACCGAAUCGGGGUUUUUGGGGUGGGGUGGGGAAAGUAUUAUGUUACGCCGUUCGGAUCUGCACUU | 0.86
CAAGUCCUGUGCUACACAUCGUAUGUACCGAAUCGGCCCCGGGCCCCGGGCCCCGGAAAGUAUUAUGUUACGCCGUUCGGAUCUGCACUU | -0.755
GUCCUGUGCUACACAUCGUAUGUACCGAAUCGGGGAAAAAGGGGAAAGGGGAAAGGGGAAAGUAUUAUGUUACGCCGUUCGGAUCUGCAC | 0.652
UCAAGUCCUGUGCUACACAUCGUAUGUACCGAAUCGGAAAAAAAGGUGGAAAGGAAAGUAUUAUGUUACGCCGUUCGGAUCUGCACUUCC | -0.902
AGUCCUGUGCUACACAUCGUAUGUACCGAAUCGGGUUUUUGGGAGGGUUUUUUUGGGAAAGUAUUAUGUUACGCCGUUCGGAUCUGCACU | -0.196
GUCCUGUGCUACACAUCGUAUGUACCGAAUCGGGAAAGGGAAAAAGGGAAAAAAAGGGAAAGUAUUAUGUUACGCCGUUCGGAUCUGCAC | -0.503
UGGCCCUGGUGGCAUGCGGGGAGGAAGAGGUGGCCUUAUGGAUCGUGGUGGUCCCGGUGGAAUGUUCAGAGGUGGCCGUGGUGGAGACAG | 0.537
GCAGGAAGUAAAAACAAAUGGAAAUGCUUCGGAUAGUGGCAGGGGUGGGGGUUGCUAAGGAAAGGGUGGGAUGGGAGUGGGUAAAGAUUU | 1.02
GUCCUGUGCUACACAUCGUAUGUACCGAAUCGGGGUUUUUGGGUUUUUGGGUUUUUGGGAAAGUAUUAUGUUACGCCGUUCGGAUCUGCA | -0.296
UAACUUUAGAGGAGGAUCUGUUGGAUAUGGCAGUGGACGUGGAUUUGGGGAUGGCUAUAAUGGGUAUGGAGGAGGACCUGGAGGUGGCAA | 0.532

Excerpt of the above (block 1):
Strand | E-score
CGGGTACC | 0.305
GACAGCGC | 0.385
CGTAAAAA | -0.0337
AACGTGCT | -0.202
